Results from different studies.
A part holds a random share of what one study measured.

Series 1 — target: human cyclin D1; effect on: peptide binding; technique: yeast competitive growth sequencing; form: peptide; organism: Saccharomyces cerevisiae; strain: cyclin D1-Cln2 fusion; concentration: concentration not given; setting: RxL motif peptides; direction: direction not given
Under “binding enrichment score”, `ARYKRKLLINDFG` is recorded as -0.053.
`PKPLKKLRFDIEG` — result for “binding enrichment score”: 0.293.
`QDYERRLLRQIVI` — result for “binding enrichment score”: -0.0207.

Series 2 — technique: RNA Bind-n-Seq; form: RNA; medium: in vitro; concentration: 200 nM; setting: whole 134-nt RNA, ends assumed; together with: 150 mM LiCl; reference: input library; direction: higher = stronger binding; each molecule: 7-deaza-guanosine replaces G
Target: Ras GTPase-activating protein-binding protein 1, full length (G3BP1, Homo sapiens, UniProt Q13283)
Chain of UniProt Q13283 (whole entry, looked up): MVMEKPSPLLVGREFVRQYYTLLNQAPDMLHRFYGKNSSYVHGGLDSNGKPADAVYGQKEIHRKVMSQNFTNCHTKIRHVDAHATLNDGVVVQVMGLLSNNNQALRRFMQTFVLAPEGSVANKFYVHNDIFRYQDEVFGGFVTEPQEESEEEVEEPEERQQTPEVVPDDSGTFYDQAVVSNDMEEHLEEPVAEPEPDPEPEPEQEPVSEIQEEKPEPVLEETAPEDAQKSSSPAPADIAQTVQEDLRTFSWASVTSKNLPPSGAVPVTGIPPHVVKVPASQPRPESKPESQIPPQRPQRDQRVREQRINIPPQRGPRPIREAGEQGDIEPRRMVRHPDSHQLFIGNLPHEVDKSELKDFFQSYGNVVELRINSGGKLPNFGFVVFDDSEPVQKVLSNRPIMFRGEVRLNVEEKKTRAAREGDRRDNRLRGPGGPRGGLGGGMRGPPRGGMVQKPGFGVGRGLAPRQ
All sequences stand within: GGGAGUUCUACAGUCCGACGAUC … UGGAAUUCUCGGGUGUCAAGG
The log2 enrichment of `AAGUCCUGUGCUACACAUCGUAUGUACCGAAUCGGGGAAAAAGGGGUGGGGUGGGGAAAGUAUUAUGUUACGCCGUUCGGAUCUGCACUU` is reported as -0.663.
`UCAAGUCCUGUGCUACACAUCGUAUGUACCGAAUCGGCCCGGGCCCGGGCCCGGGAAAGUAUUAUGUUACGCCGUUCGGAUCUGCACUUC` has a log2 enrichment of -0.615.
For `UCCAGUCUAGCUUUGGAGAAGCGCCAACCUGCUCACUGCCGCCGACCAGACUGCAUGUUUGGUUGUACUUGUUUGAAAAGAAAAGUUGUA`, the log2 enrichment was -0.958.
For `CUCAAGUCCUGUGCUACACAUCGUAUGUACCGAAUCGGGAAGGGGAAGGAAGGGAAAGUAUUAUGUUACGCCGUUCGGAUCUGCACUUCC`, the log2 enrichment was -0.327.
The log2 enrichment of `UUAGGGCCAAUCUUCGUCAAUAUGGUUUAGAGAAGUAUUACCUUGAUGUCCUGGUUUCAGAUGCAUCUAAACCUUCCUGGAGGAAGGGCA` is reported as -1.25.
`CUCAAGUCCUGUGCUACACAUCGUAUGUACCGAAUCGGGAAGGGGAAGGGAAGGAAAGUAUUAUGUUACGCCGUUCGGAUCUGCACUUCC` has a log2 enrichment of -0.303.
The log2 enrichment of `UCCUGUGCUACACAUCGUAUGUACCGAAUCGGGAAAAAAAGGAAAAAAAGGAAAAAAAGGAAAGUAUUAUGUUACGCCGUUCGGAUCUGC` is reported as -0.298.
The log2 enrichment of `UGCAUUUCCUGAGCUGAAGAAGGACCCAGACAUGGUGAAGGACAUCAUUAAUGAAGAAGAGGUGCAGUUUCUCAAGACUCUCAGCAGAGG` is reported as -1.48.

Series 3 — technique: universal PBM; form: double-stranded DNA, one strand shown; medium: in vitro; concentration: not given; direction: higher = stronger binding
Target: Sal-like protein 4, full length isoform B (SALL4, Homo sapiens, UniProt Q9UJQ4-2, residues 1-616)
Setting: 8-mer, flanks averaged, mean of replicates
`TGCCCGCA` gave an E-score of -0.215.
`CGCACGAA` has an E-score of -0.0743.
The E-score of `AGCAGGTG` is reported as -0.0754.
For `AAACTGTC`, the E-score was -0.16.
The E-score of `ACGAGGCA` is reported as -0.0224.
With `ATCCAGTA` the E-score was 0.0309.
With `ACTGAGGC` the E-score was -0.0347.
`AGAGCCCA` has an E-score of -0.148.
`CGTAATAC` has an E-score of 0.179.
For `CGGTAACA`, the E-score was 0.0748.
The E-score of `ACAACAAT` is reported as 0.197.
`CGTTAAAG` has an E-score of -0.0416.
The E-score of `AATCCTTA` is reported as 0.246.
With `ATCCGGGC` the E-score was -0.396.
For `ACGTCACT`, the E-score was -0.0178.
`CCCCTCGA` has an E-score of -0.168.
With `CCCGCCGC` the E-score was -0.397.
With `CTGGACGC` the E-score was -0.226.
For `AGGGCGGC`, the E-score was -0.333.
`AGTTAAGC` gave an E-score of 0.0388.
With `AATTAGAT` the E-score was 0.267.
`ACGGCCAA` gave an E-score of -0.0589.
The E-score of `CATGGTCC` is reported as -0.183.
For `AAAAATTG`, the E-score was 0.424.
For `ACCCAATC`, the E-score was -0.052.

Series 4 — target: UBE2Q2 UBC core domain (UniProt Q8WVN8); technique: yeast two-hybrid; medium: yeast; setting: mostly zero background; reference: not given; direction: higher = stronger interaction
Chain of UniProt Q8WVN8 (whole entry, looked up): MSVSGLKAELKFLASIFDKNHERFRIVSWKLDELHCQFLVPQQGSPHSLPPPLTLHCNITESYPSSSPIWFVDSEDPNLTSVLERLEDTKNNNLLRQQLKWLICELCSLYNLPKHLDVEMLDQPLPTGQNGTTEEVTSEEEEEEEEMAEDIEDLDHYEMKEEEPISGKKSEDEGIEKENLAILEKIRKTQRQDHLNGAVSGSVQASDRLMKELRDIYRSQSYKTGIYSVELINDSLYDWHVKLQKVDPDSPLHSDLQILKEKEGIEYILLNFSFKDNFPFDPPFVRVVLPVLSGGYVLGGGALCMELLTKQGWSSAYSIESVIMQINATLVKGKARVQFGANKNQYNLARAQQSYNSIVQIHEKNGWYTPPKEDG
B1: CBLL1 RING domain (UniProt Q75N03); chain GEKDDTPVHFCDKCGLPIKIYGRMIPCKHVFCYDCAILHEKKGDKMCPGCSDPVQRIEQCT
B2: TRIM47 RING domain (UniProt Q96LD4); chain MDGSGPFSCPICLEPLREPVTLPCGHNFCLACLGALWPHRGASGAGGPGGAARCPLCQEPFPDGLQLR
B3: TRIM74 RING domain (UniProt Q86UV6); chain SLLELEDWLQCPICLEVFKESLMLQCGHSYCKGCLVSLSYHLDTKVRCPMCWQVVDGSSSLP
B4: ARIH1 RING domain (UniProt Q9Y4X5); chain NTRSSAQDMPCQICYLNYPNSYFTGLECGHKFCMQCWSEYLTTKIMEEGMGQTISCPAHGCDILVDDNTVM
B5: NHLRC1 RING domain (UniProt Q6VVB1); chain MREAEISLLECKVCFEKFGHRQQRRPRNLSCGHVVCLACVAALAHPRTLALECPFCRRACRGCDTSD
B6: RNF115 RING domain (UniProt Q9Y4L5); chain TQEQVDMGLECPVCKEDYTVEEEVRQLPCNHFFHSSCIVPWLELHDTCPVCRKSLNGEDSTR
B7: UBE4B RING domain (UniProt O95155); chain KNARAEIDYSDAPDEFRDPLMDTLMTDPVRLPSGTIMDRSIILRHLLNSPTDPFNRQTLTESMLEPVPELKEQIQAWMREKQNSDH
B8: TRIM32 RING domain (UniProt Q13049); chain NLDALREVLECPICMESFTEEQLRPKLLHCGHTICRQCLEKLLASSINGVRCPFCSKITRITSLTQ
B9: TRIM2 RING domain (UniProt Q9C040); chain VRQIDKQFLICSICLERYKNPKVLPCLHTFCERCLQNYIPAHSLTLSCPVCRQTSILPEKGV
Under “lacZ reporter activity”, `B1 (CBLL1 RING domain)` is recorded as 0.
For `B2 (TRIM47 RING domain)`, “lacZ reporter activity” read 0.
`VPADASPDSKCPICLDRFDNVSYLDRCLHKFCFRCVQEWSKNKAECPLCKQPFDSIFHSV (TOPORS RING domain (UniProt Q9NS56))`: “lacZ reporter activity” 0.
For `AAQLLEEKLTCAICLGLYQDPVTLPCGHNFCGACIRDWWDRCGKACPECREPFPDGAELR (TRIM65 RING domain (UniProt Q6PJ69))`, “lacZ reporter activity” read 0.
`B3 (TRIM74 RING domain)` — result for “lacZ reporter activity”: 0.
`B4 (ARIH1 RING domain)`: “lacZ reporter activity” 0.
Under “lacZ reporter activity”, `B5 (NHLRC1 RING domain)` is recorded as 0.
For `B6 (RNF115 RING domain)`, “lacZ reporter activity” read 0.
For `B7 (UBE4B RING domain)`, “lacZ reporter activity” read 0.
`B8 (TRIM32 RING domain)`: “lacZ reporter activity” 0.
`B9 (TRIM2 RING domain)`: “lacZ reporter activity” 0.

Series 5 — technique: RNA Bind-n-Seq; form: RNA; medium: in vitro; concentration: 365 nM; reference: no-protein control; direction: higher = stronger binding
Target: RNA binding protein fox-1 homolog 2, RRM domain, GST-SBP tag (RBFOX2, Homo sapiens, UniProt O43251-10, residues 100-194)
Setting: natural RNA segment, single round, ends assumed
All sequences stand within: GGGAGUUCUACAGUCCGACGAUC … UGGAAUUCUCGGGUGCCAA
Target sequence (chain): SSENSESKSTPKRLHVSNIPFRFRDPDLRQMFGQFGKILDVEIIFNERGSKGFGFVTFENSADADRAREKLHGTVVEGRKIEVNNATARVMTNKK
Under “RBNS enrichment (R)”, `UUUGUCUUUUUCCUUUAUUCUUUUUGUAAAUAUAUAUAUAAUGAGUUUCAUUAAAAUAGAUUAUCCCACACGACUUGUACUGCUAGUUAUUCUUCCCAGGCCACCUUGUU` is recorded as 0.923.
`AUGGACAUUAGGUAUCCCAACAUAACCAUCUGGAGUGUGUCCAGUUUGUUCUUCAUAGGACCAAUUUUUAUUUGCAGCUUGAGUUUUUAUAUGAAGUUGCAUUAUUGUGG`: “RBNS enrichment (R)” 0.656.
Under “RBNS enrichment (R)”, `GCACCGUGCUGUAAAUGUGGCAGACGCAGCCUGCGGCCAGGCUUUUUAUUUAAUGUAAAUAGUUUUUGUUUCCAAUGAGGCAGUUUCUGGUACUCCUAUGCAAUAUUACU` is recorded as 0.34.
`UGAAGGGCCUGGUCCCUCUCUAGAUAGUGGUUUCUUUAGGGUUAACAAAAGGCUUUUGUUCAUACCAAAGGCUUUUGUGUGUGGAUGGGGGAGAGCCCCCCAGCUUCCUG` — result for “RBNS enrichment (R)”: 0.206.
Under “RBNS enrichment (R)”, `UAGUGCCUGGAUCAAUGAGAUGGACACUAAUGCUGCUUCUUUAUAAUAAUAGUACCUAAGAGUAUUGAUGGUUUUCAUUUUUCAACCAGCACUCUAAUGCACAGCUGCUG` is recorded as 0.341.
For `UCAGAUUAUUCUCAAAGAACACAGUAGCACCUAAAUCUGUUUUCAAUUGGGCUUAAAAAUUGACAUGCAAUCUCUUAAGUUUUUUGUUCAGCUACUUCACACUGAGUACC`, “RBNS enrichment (R)” read 1.46.
Under “RBNS enrichment (R)”, `ACUUCUGUACCUUUGCACAAACUCUACCCUCUGACCCUCCACUACCAUCAUACUGACACUCUUUUCCUUUAGGAAACCCUCACUGACUGACCUAGGGAGCCCUACGAAGU` is recorded as 0.892.
`GUUUUUAAGUGUUUGCCUGUGGCUACUUCCGUUCUAUAGCUCAAGAAUAUGCCAUUACAUCAUAGUCAAGGGGUUGCUAUGAGAACUGUAGUAGAGAAUACCACUGUGAG`: “RBNS enrichment (R)” 2.92.

Repeated from above (series 4):
For `B2 (TRIM47 RING domain)`, “lacZ reporter activity” read 0.
`VPADASPDSKCPICLDRFDNVSYLDRCLHKFCFRCVQEWSKNKAECPLCKQPFDSIFHSV (TOPORS RING domain (UniProt Q9NS56))`: “lacZ reporter activity” 0.
For `AAQLLEEKLTCAICLGLYQDPVTLPCGHNFCGACIRDWWDRCGKACPECREPFPDGAELR (TRIM65 RING domain (UniProt Q6PJ69))`, “lacZ reporter activity” read 0.
`B3 (TRIM74 RING domain)` — result for “lacZ reporter activity”: 0.
`B4 (ARIH1 RING domain)`: “lacZ reporter activity” 0.
